Assay results of several laboratories.
Lines come from different studies, so protocols differ. Several values in a cell are separate wells, animals, samples, runs or records. Numbers after ± are the reported error.

For `Cc1c(COC(=O)[C@@H]2[C@H](/C=C(\Cl)C(F)(F)F)C2(C)C)cccc1-c1ccccc1` (racemic), “enzyme contribution to clearance” read 16.3% (refers to: CYP3A4; human, age 1 year, recombinant human CYP3A4; 0.1 µM).
Under “relative organ weight”, `O=C(O)CCCOc1ccc(F)cc1-c1cc(-c2ccccc2C(F)(F)F)n(-c2ccccc2)n1` is recorded as 0.74 ± 0.08 g% (male Crl:CD(SD) rats, kidneys; intravenous, 25 µg/kg, 14 d).
With `C[C@H]1COCCN1c1nc(NCc2cccnc2C(F)(F)F)c2cccnc2n1` the plasma concentration was 11000 ng/mL (anaesthetized rat, plasma; intravenous, 3 mg/kg, 5 min).
For `COc1cccc(-c2ccccc2NC(=O)C2CCN(Cc3ccccc3F)CC2)c1`, the cytotoxicity efficacy was 0% (Vero-E6; CellTiter-Glo ATP; concentration not given, 72 h, first round 5-point; relative to: DMSO 0%, hyamine -100%, more negative, more toxic).
`CCN1[C@@H](C(=O)NC23CCC(C(=O)O)(CC2)CC3)[C@H](c2cccc(Cl)c2F)[C@]2(C(=O)Nc3cc(Cl)ccc32)C12CCCCC2` — result for “grade ≥3 febrile neutropenia incidence”: 12.5% (patients with advanced solid tumours; oral, 150 mg).
`O=C(c1ccc(F)c(F)c1Nc1ccc(I)cc1F)N1CC(O)([C@@H]2CCCCN2)C1` — result for “related AE dose modification”: 10% (patients aged 2 to 6 years; oral, dose not given).
For `CCN1CCN(Cc2ccc(Nc3ncc(F)c(-c4cc(F)c5nc6n(c5c4)[C@H](C)CCC6)n3)nc2)CC1`, “Thrombocytopenia incidence, grade ≥3” read 4.2% (advanced solid tumour patients; dose not given, Phase Ia monotherapy).
`COc1cc2c(Oc3ccc4[nH]c(C)cc4c3F)ccnc2cc1OCC1(N)CC1`: “grade 1 or 2 Headache” 0% (paediatric recurrent refractory sarcoma; 8 mg).
`C[C@@H]1OC(=O)NN=C1c1ccc(-c2ccc(F)cc2)c(C(F)(F)F)c1` — result for “patients with adverse event”: 100% (phase I trial, refers to: platelet count decreased all grades; human patients; 20 mg loading then 1 mg daily).
For `COc1ncccc1-c1cnn2ccc(N3CCN(C(=O)OC(C)C)CC3)nc12`, the drug concentration was 1400 nM (rat, CCI mechanical hyperalgesia model, brain; oral, 3 mg/kg, 210 min).
For `CC(C)C[C@H](NC(=O)[C@H](CCCCN)NC(=O)OCC1c2ccccc2-c2ccccc21)C(=O)N[C@H](C(=O)N[C@@H](Cc1ccccc1)C(=O)N[C@@H](Cc1ccccc1)C(=O)N[C@@H](CCCCN)C(=O)NCC(=O)N[C@@H](Cc1ccccc1)C(=O)N[C@@H](C)C(=O)N[C@@H](Cc1c[nH]c2ccccc12)C(=O)N[C@@H](CC(N)=O)C(=O)N[C@H](C(=O)N[C@H]1CSSC[C@@H](C(=O)N[C@@H](Cc2c[nH]cn2)C(=O)N[C@@H](CCCNC(=N)N)C(=O)N[C@@H](CCCNC(=N)N)C(=O)N[C@@H](C)C(=O)N[C@@H](CC(N)=O)C(N)=O)NC(=O)[C@H](C(C)C)NC(=O)[C@H](CCCNC(=N)N)NC(=O)[C@H](C(C)C)NC(=O)CNC(=O)[C@H](CC(N)=O)NC(=O)[C@H](CCCNC(=N)N)NC(=O)[C@H](Cc2ccc(O)cc2)NC(=O)[C@H](C(C)C)NC1=O)C(C)C)C(C)C`, the breathing score was 0 (ICR mouse; ip, 5 mg/kg; direction not given).
`N#C/N=C1\SCCN1Cc1ccc(Cl)nc1` has a recovery of 0% (soil; 28 days, nominal 0.12).
The neutrophil count of `COc1ccc2nc3cc(Cl)ccc3c(Nc3cc(CN4CCCC4)c(O)c(CN4CCCC4)c3)c2n1` is reported as 1.54 10⁹/L (mouse, blood; intraperitoneal, 28 mg/kg).
The body weight of `COc1cc(C2C3=C(COC3=O)N(CCO)c3cc4c(cc32)CCC4)cc(OC)c1OC` (stereo not shown) is reported as 22 g (female C57BL/6 mice; intraperitoneal, 200 mg/kg, 48 h, single dose, mean).
For `CO[C@H]1C[C@@H]2CC[C@@H](C)[C@@](O)(O2)C(=O)C(=O)N2CCCC[C@H]2C(=O)O[C@H]([C@H](C)C[C@@H]2CC[C@@H](OC(=O)NCCOCCOCCOCCOCCOCCOCCOCCOCCC(=O)N3CCc4cc(Cn5nc(-c6ccc7oc(N)nc7c6)c6c(N)ncnc65)ccc4C3)[C@H](OC)C2)C[C@@H](O)[C@H](C)/C=C(\C)[C@@H](O)[C@@H](OC)C(=O)[C@H](C)C[C@H](C)/C=C/C=C/C=C/1C`, “AEs causing dose modification” read 41.7% (phase 1 dose escalation; advanced solid tumour patients; intravenous, 6 mg weekly, grade ≥3).
`O=S(=O)(Nc1ccccc1)c1ccc(NC(=S)Nc2ccccc2)cc1` — result for “relative organ weight”: 0.32% (female mice, thymus; oral, 20 mg/kg daily 14 days; relative to: body weight).
`Cc1cn(-c2ccc3c(c2)CN(c2ncc(Cc4ccc(-n5cccn5)cc4)s2)CC3)c(C)n1` gave a precipitation concentration of greater than 10 µM (cell culture medium; 14 days).
Under “bicarbonate (total CO2)”, `COc1cccc(Oc2ccccc2NC(=O)CNC(=O)c2cccc3ccccc23)c1` is recorded as 18 mmol/L and 20 mmol/L and 17 mmol/L (esterase-deficient SCID mice, male; oral, 40 mg/kg/day, 14 days, toxicity study).
`COc1ccc(CCNC(=O)c2cc(Nc3ccccc3)nc3ccccc23)cc1OC` has a cytotoxicity efficacy of 0% (Vero-E6; CellTiter-Glo ATP; concentration not given, 72 h, first round 5-point; relative to: DMSO 0%, hyamine -100%, more negative, more toxic).
For `N[C@@H]1c2ccccc2OC12CCN(c1cnc3c(N4CCCc5ncccc54)n[nH]c3n1)CC2`, “incidence grade ≥3 serious TEAE” read 30% (patients advanced metastatic solid tumours; oral, 60 mg once daily, RP2D expansion phase).
`O=C(Nc1ccccc1)C1CCN(C(=O)Oc2cccnc2)CC1`: “subjects with cold sweat” 0% (adverse event reporting; healthy women; oral, 60 mg, 7 days).
For `CN1CC[C@@H](c2c(O)cc(O)c3c(=O)cc(-c4ccc(C(F)(F)F)cc4Cl)oc23)[C@@H]1CO`, “patients with adverse event” read 0% (refers to: Thrombocytopenia; relapsed B-cell malignancies or AML; oral, 50 mg, grade 3-4, continuous dosing).
For `CN[C@@H](C)C(=O)N[C@H]1CN(S(=O)(=O)c2cccc(S(=O)(=O)N3CC[C@H]4CC[C@@H](C(=O)NC(c5ccccc5)c5ccccc5)N4C(=O)[C@@H](NC(=O)[C@H](C)NC)C3)c2)CC[C@H]2CC[C@@H](C(=O)NC(c3ccccc3)c3ccccc3)N2C1=O`, “treatment-related facial nerve disorder incidence” read 0% (patients with advanced solid tumours; 12 mg, phase I monotherapy).
Under physiological reflexes, `Cc1ccc2cc(N3CCC4(O)C(=O)c5cc(C)c(C)cc5N=C34)ccc2n1` (stereo not shown) is recorded as “no effect” (functional observational battery; rat; concentration not given).
`CCc1ccc(CC/C=C/c2ccc3c(c2)C(=O)CC3)cc1`: “ALT serum activity” 79.7 U/L (Sprague-Dawley rat, male; oral, 450 mg/kg/day, 14 days).
`O=C(Oc1ccc(I)cc1)[c-]1cccc1.[Fe+2].c1cc[cH-]c1` has a reduction potential of 502 mV (cyclic voltammetry; methanol/DMEM 1:1 with TBAPF6; concentration not given, Pt disk electrode, Ag/AgCl reference, added: scan rate 100 mV/s).
`C=CC(=O)Nc1cc(Nc2ncc(C(=O)OC(C)C)c(-c3cn(C)c4ccccc34)n2)c(OC)cc1N(C)CCN(C)C`: “fatal heart failure” 0.4% (pooled safety population; 160 mg once daily, one case).
`CCCCCCCCCCCCOS(=O)(=O)O.O=C(NCCCNc1nc(Nc2cccc(NC(=O)N3CCCC3)c2)ncc1I)c1cccs1`: “degradation onset temperature” roughly 185 °C (thermogravimetric analysis; nitrogen 10 °C/min).

A few entries again:
`CCN1[C@@H](C(=O)NC23CCC(C(=O)O)(CC2)CC3)[C@H](c2cccc(Cl)c2F)[C@]2(C(=O)Nc3cc(Cl)ccc32)C12CCCCC2` — result for “grade ≥3 febrile neutropenia incidence”: 12.5% (patients with advanced solid tumours; oral, 150 mg).
`O=C(c1ccc(F)c(F)c1Nc1ccc(I)cc1F)N1CC(O)([C@@H]2CCCCN2)C1` — result for “related AE dose modification”: 10% (patients aged 2 to 6 years; oral, dose not given).
For `CCN1CCN(Cc2ccc(Nc3ncc(F)c(-c4cc(F)c5nc6n(c5c4)[C@H](C)CCC6)n3)nc2)CC1`, “Thrombocytopenia incidence, grade ≥3” read 4.2% (advanced solid tumour patients; dose not given, Phase Ia monotherapy).
`COc1cc2c(Oc3ccc4[nH]c(C)cc4c3F)ccnc2cc1OCC1(N)CC1`: “grade 1 or 2 Headache” 0% (paediatric recurrent refractory sarcoma; 8 mg).
`C[C@@H]1OC(=O)NN=C1c1ccc(-c2ccc(F)cc2)c(C(F)(F)F)c1` — result for “patients with adverse event”: 100% (phase I trial, refers to: platelet count decreased all grades; human patients; 20 mg loading then 1 mg daily).
